{"data": "Experimental data gathered from unrelated publications", "note": "Parts stem from different laboratories: compare values within a part only. Positions count from the first letter of the parent shown."}
{"data": "Study 1", "target": "CCND2, cyclin fold, Cln2 fusion (human)", "technique": "yeast growth competition, sequencing", "matrix": "yeast", "notes": "weak parent motif", "relative to": "not given", "direction": "higher = stronger binding", "starting sequence": "MASTL docking peptide (human); PMIAKNLMCELDE"}
{"Change": "PMIAINLMCELDE [K5I]", "normalised enrichment score": 0.0414}
{"Change": "PMIAPNLMCELDE [K5P]", "normalised enrichment score": -0.0856}
{"Change": "PMEAKNLMCELDE [I3E]", "normalised enrichment score": 0.0855}
{"Change": "PMQAKNLMCELDE [I3Q]", "normalised enrichment score": -0.104}
{"Change": "PMAAKNLMCELDE [I3A]", "normalised enrichment score": 0.0383}
{"Change": "PMIAKNLMCELRE [D12R]", "normalised enrichment score": 0.0912}
{"Change": "PMHAKNLMCELDE [I3H]", "normalised enrichment score": -0.0213}
{"Change": "PMIAKNLMRELDE [C9R]", "normalised enrichment score": 0.232}
{"Change": "PEIAKNLMCELDE [M2E]", "normalised enrichment score": 0.147}
{"Change": "PMIAKNLMCELPE [D12P]", "normalised enrichment score": -0.114}
{"data": "Study 2", "target": "Interferon regulatory factor 3, full length, phosphomimetic (IRF3, Homo sapiens, UniProt Q14653, residues 1-427, S386D/S396D/S398D/S402D/T404D/S405D)", "technique": "protein-binding microarray", "molecule type": "double-stranded DNA, one strand shown", "matrix": "in vitro", "tested at": "2540 nM top", "notes": "60-bp whole probe", "with": "salmon DNA 0.4 mg/ml", "relative to": "random background probes", "direction": "higher = stronger binding", "all sequences stand within": "GCCTAGCAC … GTCTTGATTCGCTTGACGCTGCTG", "Residues (chain)": "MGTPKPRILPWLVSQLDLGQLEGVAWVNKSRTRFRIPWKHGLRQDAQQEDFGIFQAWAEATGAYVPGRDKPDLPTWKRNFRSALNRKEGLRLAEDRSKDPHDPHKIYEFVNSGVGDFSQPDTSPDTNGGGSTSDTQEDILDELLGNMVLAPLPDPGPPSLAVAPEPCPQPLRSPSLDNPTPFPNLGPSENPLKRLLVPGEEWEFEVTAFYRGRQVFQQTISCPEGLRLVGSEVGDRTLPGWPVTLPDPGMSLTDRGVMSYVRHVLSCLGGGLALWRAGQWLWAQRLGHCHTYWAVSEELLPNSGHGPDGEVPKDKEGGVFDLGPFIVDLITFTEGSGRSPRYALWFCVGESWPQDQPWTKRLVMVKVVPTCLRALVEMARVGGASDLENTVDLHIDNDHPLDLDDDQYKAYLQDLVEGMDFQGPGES"}
{"Sequence": "CCCCATCTTGTTCCCAGAGAGTGCTAG", "fitted relative affinity": "1.77 z-score"}
{"Sequence": "TTAGGTTTCGCTTCCGGTTAGTGCTAG", "fitted relative affinity": "7.4 z-score"}
{"Sequence": "CTAGTTTCCATTTTCAGAATGTGCTAG", "fitted relative affinity": "10.4 z-score"}
{"Sequence": "TCATGTTTTGTTTTTCAACTGTGCTAG", "fitted relative affinity": "2.62 z-score"}
{"Sequence": "TTAGGAATGGGTTTCGGTTAGTGCTAG", "fitted relative affinity": "3.33 z-score"}
{"Sequence": "TTAGATATCATTATCGATTAGTGCTAG", "fitted relative affinity": "1.47 z-score"}
{"Sequence": "GACGGTTTCGACTATCAGGACGTGCTA", "fitted relative affinity": "3.21 z-score"}
{"Sequence": "GACGGTTTCGGTCTCGGGCCGTGCTAG", "fitted relative affinity": "8.54 z-score"}
{"Sequence": "GACGGACTGGGGTATCGGCACGTGCTA", "fitted relative affinity": "-0.893 z-score"}
{"data": "Study 3", "target": "ABI1, truncated, D143A, DHFR fusion (Arabidopsis thaliana)", "technique": "DHFR PCA, deep sequencing", "matrix": "yeast", "notes": "methotrexate growth selection, single substitutions", "with": "(+)-ABA 4.8 µM", "relative to": "wild-type fitted maximum", "direction": "higher = stronger binding", "starting sequence": "PYL1, truncated, DHFR fusion (Arabidopsis thaliana); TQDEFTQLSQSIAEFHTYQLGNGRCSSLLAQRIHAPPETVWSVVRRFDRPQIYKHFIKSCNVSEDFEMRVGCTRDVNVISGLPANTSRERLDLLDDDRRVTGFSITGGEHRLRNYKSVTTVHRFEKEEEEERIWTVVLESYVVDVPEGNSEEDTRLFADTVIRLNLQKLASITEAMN; partner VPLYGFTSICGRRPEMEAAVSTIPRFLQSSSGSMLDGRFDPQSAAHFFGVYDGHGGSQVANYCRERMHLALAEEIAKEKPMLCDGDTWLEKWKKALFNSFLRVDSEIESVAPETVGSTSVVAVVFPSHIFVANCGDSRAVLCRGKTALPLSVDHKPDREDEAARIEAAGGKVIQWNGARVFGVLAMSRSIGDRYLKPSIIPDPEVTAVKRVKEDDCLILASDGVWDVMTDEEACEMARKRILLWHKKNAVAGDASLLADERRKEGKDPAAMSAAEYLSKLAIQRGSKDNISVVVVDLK"}
{"Change": "S117T", "relative binding score [%]": 6.18}
{"Change": "V43P", "relative binding score [%]": -7.87}
{"Change": "V143M", "relative binding score [%]": 13.8}
{"Change": "R113N", "relative binding score [%]": 64.7}
{"Change": "N149K", "relative binding score [%]": -3.42}
{"Change": "I57K", "relative binding score [%]": -9.69}
{"Change": "L164V", "relative binding score [%]": 73.9}
{"Change": "F124G", "relative binding score [%]": 53.2}
{"Change": "W134E", "relative binding score [%]": 91.5}
{"Change": "Q19G", "relative binding score [%]": 58.4}
{"Change": "V136D", "relative binding score [%]": 6.15}
{"Change": "D48A", "relative binding score [%]": -13.5}
{"Change": "E14M", "relative binding score [%]": 47.7}
{"data": "Single results of other studies"}
{"Substance": "PhoQ, residues 284 288 289 292 302 303 GLASVI", "target": "PhoP, residues 12 14 15 18 19 YHFSH (Escherichia coli, UniProt P23836)", "test": "Sort-seq, refers to: YFP reporter", "system": "E. coli", "setting": "PhoQ-PhoP variant library, with: 10 µM Mg2+", "scale": "relative to: high Mg2+ state, higher = stronger signaling", "measurement": "fold induction", "value": 1.09}
{"note": "For quick reference, copied from above (study 3):"}
{"Change": "R113N", "relative binding score [%]": 64.7}
{"Change": "E14M", "relative binding score [%]": 47.7}
{"Change": "V143M", "relative binding score [%]": 13.8}
{"Change": "V136D", "relative binding score [%]": 6.15}
{"Change": "I57K", "relative binding score [%]": -9.69}
